Measurements pooled from the literature.
Lines come from different studies, so protocols differ. Numbers after ± are the reported error.

CC(C)=CC1C(C(=O)OC(C#N)c2cccc(Oc3ccccc3)c2)C1(C)C (centres unmarked)  enzyme contribution to clearance (measured: CYP3A4; human, age 1 year): 0.67%
CC(C)C[C@H](NC(=O)[C@H](CCCCN)NC(=O)OCC1c2ccccc2-c2ccccc21)C(=O)N[C@H](C(=O)N[C@@H](Cc1ccccc1)C(=O)N[C@@H](Cc1ccccc1)C(=O)N[C@@H](CCCCN)C(=O)NCC(=O)N[C@@H](Cc1ccccc1)C(=O)N[C@@H](C)C(=O)N[C@@H](Cc1c[nH]c2ccccc12)C(=O)N[C@@H](CC(N)=O)C(=O)N[C@H](C(=O)N[C@H]1CSSC[C@@H](C(=O)N[C@@H](Cc2c[nH]cn2)C(=O)N[C@@H](CCCNC(=N)N)C(=O)N[C@@H](CCCNC(=N)N)C(=O)N[C@@H](C)C(=O)N[C@@H](CC(N)=O)C(N)=O)NC(=O)[C@H](C(C)C)NC(=O)[C@H](CCCNC(=N)N)NC(=O)[C@H](C(C)C)NC(=O)CNC(=O)[C@H](CC(N)=O)NC(=O)[C@H](CCCNC(=N)N)NC(=O)[C@H](Cc2ccc(O)cc2)NC(=O)[C@H](C(C)C)NC1=O)C(C)C)C(C)C  breathing score (ICR mouse; ip, 10 mg/kg; direction not given): 0
[O-][S+]1CCc2nc(N3CCC(c4ncc(Cl)cn4)CC3)nc(NC3(CO)CCC3)c21 (centres unmarked)  adverse event incidence (measured: abdominal distension; healthy male humans; 6 mg twice daily): 0%
COc1ccc(Cl)cc1NC(=O)CSc1nc2ccccc2nc1N1CCCCC1  cytotoxicity efficacy (Vero-E6; CellTiter-Glo ATP; concentration not given, 72 h, first round 5-point; reference: DMSO 0%, hyamine -100%, more negative, more toxic): 0%
CO[C@H]1C[C@@H]2CC[C@@H](C)[C@@](O)(O2)C(=O)C(=O)N2CCCC[C@H]2C(=O)O[C@H]([C@H](C)C[C@@H]2CC[C@@H](OC(=O)NCCOCCOCCOCCOCCOCCOCCOCCOCCC(=O)N3CCc4cc(Cn5nc(-c6ccc7oc(N)nc7c6)c6c(N)ncnc65)ccc4C3)[C@H](OC)C2)C[C@@H](O)[C@H](C)/C=C(\C)[C@@H](O)[C@@H](OC)C(=O)[C@H](C)C[C@H](C)/C=C/C=C/C=C/1C  TRAE incidence (phase 1 dose escalation, measured: headache; advanced solid tumour patients; intravenous, 8 mg weekly, grade ≥3): 0%
CCc1ccc(CC/C=C/c2ccc3c(c2)C(=O)CC3)cc1  CK serum activity (Sprague-Dawley rat, male; oral, 120 mg/kg/day, 14 days): 489 U/L
O=S(=O)(Nc1ccccc1)c1ccc(NC(=S)Nc2ccccc2)cc1  haemoglobin (male mouse, blood; oral, 80 mg/kg daily, 14 days): 13.8 g/dL
C[C@H](NC(=O)c1c(C(F)F)nn(C)c1Oc1cccc(C(F)(F)F)c1)c1ccc(C(=O)O)cc1  AUC(0-t) (human, plasma; 250 mg, cycle 1 day 8, mean): 2270 ng·h/mL
Clc1ccc(-c2ccccc2)cc1  serum triglycerides (rat Sprague-Dawley female, serum; inhalation, 23 µg/rat, 1 h): 41 ± 4 mg/dL
COC[C@@H](CC(C)C)NC(=O)c1ccc(C)c(C)c1  micronucleated PCE per 1000 PCE (Hsd:ICR (CD-1) mouse, female, bone marrow; oral, 2000 mg/kg, 24 h): 0.5
CCCSc1ccc2nc(NC(=O)OC)[nH]c2c1  haemoglobin (mouse, blood; oral, 50 mg/kg, tolerability, mean): 15 g/dL
O=C(O)C(O)(c1cccs1)c1cccs1  metabolite over parent AUC(0-24) ratio (human, plasma; oral, 50 mg once daily, 5 days, median; reference: metabolite over parent): 0.199
CN1CC[C@@H](c2c(O)cc(O)c3c(=O)cc(-c4ccc(C(F)(F)F)cc4Cl)oc23)[C@@H]1CO  patients with adverse event (measured: febrile neutropenia; AML; oral, 100 mg, grade 3 to 4, intermittent dosing): 0%
O=C(NCCCN1CCCCCC1)c1ccc2c(c1)sc1nc(-c3ccccc3)cn12  cytotoxicity efficacy (Vero-E6; CellTiter-Glo ATP; concentration not given, 72 h, second round 5-point; reference: DMSO 0%, hyamine -100%, more negative, more toxic): -33.3%
COc1ccc(C[C@@H]2NC(=O)[C@H]([C@@H](C)O)NC(=O)[C@@H]3[C@@H]4CCN3C(=O)[C@@H]3Cc5cn(c6ccc(F)cc56)CCCCCCN(Cc5ccc(cc5)CCNC(=O)[C@]5(C)CCCN5C2=O)C(=O)CCC(=O)N[C@@H](C)C(=O)N[C@H](CNC(=O)CCCCC[N+](C)(C)C)C(=O)N[C@@H](Cc2cccc(c2)CNC(=O)CO4)C(=O)N3)cc1  participants with adverse event (measured: gastroesophageal reflux disease; human; dose not given): 9.7%
COc1ncccc1-c1cnn2ccc(N3CCN(C(=O)OC(C)C)CC3)nc12  free concentration (mouse formalin model, plasma; oral, 10 mg/kg, 60 min): 90 nM
C[C@]1(CO)Cc2ncn(-c3ccc(C#N)c(Cl)c3)c2C(=O)O1  Tmax at steady state (healthy Japanese adults, plasma; 3 mg once daily, multiple dose): 30 min
COc1cccc(N=Nc2ccc3[nH]cc(CCN(C)C)c3c2)c1  trans isomer at photostationary state (light irradiation; solution; with: light 530 nm): 85%
C[C@@H]1NC(=O)[C@H](CCCCNC(=O)CO/N=C/C(=O)NCCCC[C@@H]2NC(=O)[C@@H](Cc3ccccc3)NC(=O)[C@H](CC(=O)O)NC(=O)CNC(=O)[C@H](CCCNC(=N)N)NC2=O)NC(=O)CNC(=O)[C@@H]2CCCN2C(=O)[C@H](CCCCNC(=O)CO/N=C/C(=O)NCCCC[C@@H]2NC(=O)[C@@H](Cc3ccccc3)NC(=O)[C@H](CC(=O)O)NC(=O)CNC(=O)[C@H](CCCNC(=N)N)NC2=O)NC(=O)[C@H](CCCCNC(=O)CN2CCCNCCNCCCNCC2)NC(=O)[C@H](CCCCNC(=O)CO/N=C/C(=O)NCCCC[C@@H]2NC(=O)[C@@H](Cc3ccccc3)NC(=O)[C@H](CC(=O)O)NC(=O)CNC(=O)[C@H](CCCNC(=N)N)NC2=O)NC(=O)CNC(=O)[C@@H]2CCCN2C(=O)[C@H](CCCCNC(=O)CO/N=C/C(=O)NCCCC[C@@H]2NC(=O)[C@@H](Cc3ccccc3)NC(=O)[C@H](CC(=O)O)NC(=O)CNC(=O)[C@H](CCCNC(=N)N)NC2=O)NC1=O [copper-64 labelled]  tissue uptake (normal mice, blood; intravenous, 0.74 MBq, 3 h post-injection): 0.09 ± 0.01 %ID/g
CC(C)(O)c1cc(Nc2cc(Oc3cn(C4CC4)nc3C3CCOCC3)ccn2)ccn1  treatment-emergent adverse events (Cough; advanced cancer patients, dose escalation; oral, dose not given, 2 weeks on/off, all causality grade ≥3): 0%
CCN1[C@@H](C(=O)NC23CCC(C(=O)O)(CC2)CC3)[C@H](c2cccc(Cl)c2F)[C@]2(C(=O)Nc3cc(Cl)ccc32)C12CCCCC2  Thrombocytopenia incidence (patients with advanced solid tumours; oral, 100 mg): 36.4%
COc1cc2c(Oc3ccc4[nH]c(C)cc4c3F)ccnc2cc1OCC1(N)CC1  grade 1 or 2 Anorexia (paediatric recurrent refractory sarcoma; 10 mg): 0%
N[C@@H]1c2ccccc2OC12CCN(c1cnc3c(N4CCCc5ncccc54)n[nH]c3n1)CC2  left ventricular ejection fraction (human; 50 mg once daily, cycle 2): 55%
C/C(=N\C#N)N(C)Cc1ccc(Cl)nc1  recovery (soil; 56 days, nominal 1.1): 2%
C[C@@H]1OC(=O)NN=C1c1ccc(-c2ccc(F)cc2)c(C(F)(F)F)c1  patients with TEAE (phase I trial, measured: alkaline phosphatase increased; human patients; 20 mg load, 1 mg daily, worst grade 1): 50%
O=C(Oc1ccc(F)cc1)[c-]1cccc1.[Fe+2].c1cc[cH-]c1  oxidation potential (cyclic voltammetry; methanol/DMEM 1:1 with TBAPF6; Pt disk electrode, Ag/AgCl reference, with: scan rate 100 mV/s): 566 mV
O=C(c1ccc(F)c(F)c1Nc1ccc(I)cc1F)N1CC(O)([C@@H]2CCCCN2)C1  fatal adverse events (patients aged 2 to 6 years; oral, dose not given): 0%
CC(=O)c1c(C)c2cnc(Nc3ccc(C4CCN(CCS(C)(=O)=O)CC4)cn3)nc2n(C2CCCC2)c1=O  clearance (human, dose-escalation trial, plasma; oral, 25 mg twice daily, day 1, single dose): 1290 mL/min
Cn1ncc(-c2nc(N[C@H]3CC[C@H](N)CC3)ncc2Cl)c1CC1CC1  alanine aminotransferase increase incidence (phase I dose escalation; human patients; dose not given, grade 3-4 TEAE; reference: patients): 3%

Excerpt of the above:
O=C(Oc1ccc(F)cc1)[c-]1cccc1.[Fe+2].c1cc[cH-]c1  oxidation potential (cyclic voltammetry; methanol/DMEM 1:1 with TBAPF6; Pt disk electrode, Ag/AgCl reference, with: scan rate 100 mV/s): 566 mV
C[C@@H]1OC(=O)NN=C1c1ccc(-c2ccc(F)cc2)c(C(F)(F)F)c1  patients with TEAE (phase I trial, measured: alkaline phosphatase increased; human patients; 20 mg load, 1 mg daily, worst grade 1): 50%
COc1cccc(N=Nc2ccc3[nH]cc(CCN(C)C)c3c2)c1  trans isomer at photostationary state (light irradiation; solution; with: light 530 nm): 85%
Cn1ncc(-c2nc(N[C@H]3CC[C@H](N)CC3)ncc2Cl)c1CC1CC1  alanine aminotransferase increase incidence (phase I dose escalation; human patients; dose not given, grade 3-4 TEAE; reference: patients): 3%
